Results pooled from the literature.
Compare with care: the assays were run in different laboratories. ± gives the spread as reported.

Compound	cell line	assay	setting	IC50 [µM]
COc1ccc(NC(=O)Cn2cnc3ccccc3c2=O)c(N)c1	HepG2.2.15	cell growth or viability, crystal violet	48 h	> 100
CC(C)c1ccc2c(c1)CC[C@H]1[C@](C)(CN)CCC[C@]21C	WM278.1 melanoma (vertical growth phase)	cell viability, MTS	72 h	2.27 ± 0.07
N.N.[Cl][Pt][Cl]	HL-7702 normal liver	cytotoxicity, MTT	48 h	15.7 ± 0.32
O=C1[O][Pt]2([NH][C@@H]3CCCC[C@H]3[NH]2)[O]C1=O	H22	CCK-8	24 h	21.5 ± 0.88
CC1=C(CC/C(C)=C/CC/C(C)=C/CCC2=CC(=O)OC2O)C(C)(C)CCC1 (stereo not shown)	LAPC4	AR transcriptional activity, antagonist, PSA promoter luciferase	24 h	1.56
COc1cc2c(c(OC)c1OC)-c1ccc(N)c(=O)cc1[C@@H](NC(C)=O)CC2	MCF7 MT1-MMP negative	cell viability, MTT	24 h exposure, read 96 h post treatment	0.064 ± 0.028
COc1cc(-n2nnnc2-c2ccccc2)cc(OC)c1OC	HeLa, A549, HL-60, MCF7, HT-29	cell growth	all lines except Jurkat	> 0.9
O=C(Cn1cnc2ccccc2c1=O)Nc1ncccc1O	HepG2.2.15	cell growth or viability, crystal violet	48 h	> 100
COc1cc2cc(c1Cl)N(C)C(=O)C[C@H](OC(=O)[C@H](C)N(C)C(=O)CCS)[C@]1(C)O[C@H]1[C@H](C)[C@@H]1C[C@@](O)(NC(=O)O1)[C@H](OC)/C=C/C=C(\C)C2	BT-474	cell growth or viability, ATP luminescence		0.0239
N.N.[Cl][Pt][Cl]	SGC-7901/DDP (compound-resistant)	cell viability, CCK-8		5.03 ± 0.199
C=C(CC[C@@H](C)[C@H]1CC[C@H]2C3=C(C(=O)C[C@]12C)[C@@]1(C)CCC(=O)[C@@H](C)[C@@H]1CC3=O)C(C)C(=O)O (stereo partly shown)	BV-2	NO release, inhibitor, Griess	24 h, LPS-stimulated	< 5
CCCCc1oc2ccccc2c1C(=O)c1cc(I)c(OCCN(CC)CC)c(I)c1	rabbit alveolar macrophages	surfactant protein A degradation	1 h	13.4 ± 2.1
N.N.[Cl][Pt][Cl]	LN-308	cell viability, trypan blue exclusion	48 h, dark	8.8 ± 0.7

Repeated from above:
Compound	cell line	assay	setting	IC50 [µM]
O=C1[O][Pt]2([NH][C@@H]3CCCC[C@H]3[NH]2)[O]C1=O	H22	CCK-8	24 h	21.5 ± 0.88
